Published values gathered from unrelated publications.
A part holds a random share of what one study measured.

Sample 1
Target: Ras GTPase-activating protein-binding protein 1, full length (G3BP1, Homo sapiens, UniProt Q13283)
UniProt Q13283, sequence (whole entry, looked up): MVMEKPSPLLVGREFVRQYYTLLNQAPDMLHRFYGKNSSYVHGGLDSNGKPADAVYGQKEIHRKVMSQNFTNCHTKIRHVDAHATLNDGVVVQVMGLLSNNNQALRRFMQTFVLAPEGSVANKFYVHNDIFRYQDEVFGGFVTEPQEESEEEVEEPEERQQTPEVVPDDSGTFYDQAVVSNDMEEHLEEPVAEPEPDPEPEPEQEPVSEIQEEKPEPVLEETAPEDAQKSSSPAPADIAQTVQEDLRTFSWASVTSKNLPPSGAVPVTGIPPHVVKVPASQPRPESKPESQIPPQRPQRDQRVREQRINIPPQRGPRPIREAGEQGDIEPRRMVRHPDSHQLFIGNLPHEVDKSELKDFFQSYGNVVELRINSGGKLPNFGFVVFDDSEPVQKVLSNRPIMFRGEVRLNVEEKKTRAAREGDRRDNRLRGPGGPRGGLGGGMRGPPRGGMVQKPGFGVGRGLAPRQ
Technique: RNA Bind-n-Seq
Molecule type: RNA
Matrix: in vitro
Tested at: 200 nM
Notes: whole 134-nt RNA, ends assumed
Together with: 150 mM KCl
Baseline: input library
Reading: higher = stronger binding
Measurement: log2 enrichment
Constant ends, left off below: GGGAGUUCUACAGUCCGACGAUC … UGGAAUUCUCGGGUGUCAAGG
AGUCCUGUGCUACACAUCGUAUGUACCGAAUCGGGUUUUGGUUUUGGGGUUUUGGGGAAAGUAUUAUGUUACGCCGUUCGGAUCUGCACU: -0.346
AAGUCCUGUGCUACACAUCGUAUGUACCGAAUCGGGAAAAAGGGUGGGUUUUUGGGAAAGUAUUAUGUUACGCCGUUCGGAUCUGCACUU: 0.251
AAGUCCUGUGCUACACAUCGUAUGUACCGAAUCGGUUUGGAAAAAAAGGUUUUUGGAAAGUAUUAUGUUACGCCGUUCGGAUCUGCACUU: -1.44
UCAAGUCCUGUGCUACACAUCGUAUGUACCGAAUCGGGAAAAAGGGAGGGAGGGAAAGUAUUAUGUUACGCCGUUCGGAUCUGCACUUCC: 1.06
UGGGAGGUGGAUUUUGUUUAUUUUUUUAGCUCAUUUCCAGGCGUGGGAAUUUUUUUUUAAUAUGUGUCAUGAAUAAAGUUGUUUUUGAAA: 0.127
UGGGAGGUGGAUUUUGUUUAUUUUUUUAGCGCAUUUCCAGGGGUGGGAAUUUUUUUUUAAUAUGUGUCAUGAAUAAAGUUGUUUUUGAAA: 0.33

Sample 2
Target: Histone acetyltransferase KAT6A, winged helix 2, GST fusion (KAT6A, Homo sapiens, UniProt Q92794, residues 85-181)
Technique: protein binding microarray
Molecule type: double-stranded DNA, one strand shown
Matrix: in vitro
Tested at: not given
Notes: 8-mer, flanks averaged, mean of 2 arrays, mostly near background
Baseline: not given
Reading: higher = stronger binding
Measurement: E-score
Residues (chain): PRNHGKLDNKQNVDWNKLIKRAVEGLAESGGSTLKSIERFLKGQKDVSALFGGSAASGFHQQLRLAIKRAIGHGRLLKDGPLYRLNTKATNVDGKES
GCGTTGGA: 0.00781
CCCTCTAA: 0.0536
AGGCCCAA: -0.0653
CATGTTCA: -0.312

Sample 3
Target: RNA binding protein fox-1 homolog 2, RRM domain, GST-SBP tag (RBFOX2, Homo sapiens, UniProt O43251-10, residues 100-194)
Technique: RNA Bind-n-Seq
Molecule type: RNA
Matrix: in vitro
Tested at: 365 nM
Notes: natural RNA segment, single round, ends assumed
Baseline: no-protein control
Reading: higher = stronger binding
Measurement: RBNS enrichment (R)
Constant ends, left off below: GGGAGUUCUACAGUCCGACGAUC … UGGAAUUCUCGGGUGCCAA
Construct (chain): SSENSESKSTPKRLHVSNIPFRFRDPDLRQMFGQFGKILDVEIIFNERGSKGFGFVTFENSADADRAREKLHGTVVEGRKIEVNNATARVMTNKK
GCUGAAGGUGGGGCCUAGGGAGGGGGCACUGAAGCAAUCUCCUGCUCCAACGCACAAUCCUUACUGUGCCCUUUCCACCCCCACACUCACACCAAUCUGCAGAAACCUCU: 0.157
GCACUUGGUAUUCCAGACCCCUGACAUGAGGAAUGCAGGUUCACACUGUAAAGAGUUUGUGAAAGGUUUCAGUCUAACUGGGGUUCCUUAGCUGGAAGCCAGGGCUGGAA: 0.5
AAAACCAGUAACAAACACAAAGGAAUUCAGGGUCGCUUUGCUUGCUCUCUGUGCUCCGUGGAGGCCUCCGUGUGCCCUCGUUGCCGUGGGGACCCAGCUCCAUGCACGUC: 2.08
UCUGAGAUAGCUGGAUUGUAUAUACUUGCAGAUUUAAAAAUAUAGGGAAAUUGAAAAAGACAUGUAGAAUUUUGUUAGGUCUUCUGCUAAGCACGAAUAAGAUAUCUGCU: 4.23
UCUUAGUUGGUAUCAACCAAAUGGAGUGACUUAGUGUACAUGAAAGCGUAAAGAGGAUGUGUGGCAUUUUCACUUUUGGCUUGUAAAGUACAGACUUUUUUUUUUUUUUA: 0.638
AGAGUUCACUGUUGUACACAGUCUGUUUUCUAUUUGUUAAGAAAAACUACAGCAUCAUUGCAUACUUCUUGAUGGUAAUAAAUUUGAAUAAUCAAGAUUUCUUACACACU: 1.11
UUUUUUAAUGUGGGUCUCCCUCAGGGUUGUUUAAAGUUGUUUGUUUUCCUCCCUUACAUAUAAAUAAAUAAUGGUAACCGGUUUCUAUCUUGUAGCACCAACUGCUGUAA: 0.83

Single results of other studies
PhoQ, residues 284 288 289 292 302 303 GTAMQF — fold induction (PhoP, residues 12 14 15 18 19 SQCLL (Escherichia coli, UniProt P23836); Sort-seq, refers to: YFP reporter; E. coli; PhoQ-PhoP variant library, together with: 10 µM Mg2+; baseline: high Mg2+ state, higher = stronger signaling): 2.76

Repeated from above (sample 1):
UCAAGUCCUGUGCUACACAUCGUAUGUACCGAAUCGGGAAAAAGGGAGGGAGGGAAAGUAUUAUGUUACGCCGUUCGGAUCUGCACUUCC: 1.06
UGGGAGGUGGAUUUUGUUUAUUUUUUUAGCUCAUUUCCAGGCGUGGGAAUUUUUUUUUAAUAUGUGUCAUGAAUAAAGUUGUUUUUGAAA: 0.127
